Measurements collected from several papers.
Each numbered part is a random draw from the data of one study; scales do not carry over between parts.

Series 1
Target: Ras GTPase-activating protein-binding protein 1, C-terminal RGG region (G3BP1, Homo sapiens, UniProt Q13283)
UniProt Q13283, sequence (whole entry, looked up): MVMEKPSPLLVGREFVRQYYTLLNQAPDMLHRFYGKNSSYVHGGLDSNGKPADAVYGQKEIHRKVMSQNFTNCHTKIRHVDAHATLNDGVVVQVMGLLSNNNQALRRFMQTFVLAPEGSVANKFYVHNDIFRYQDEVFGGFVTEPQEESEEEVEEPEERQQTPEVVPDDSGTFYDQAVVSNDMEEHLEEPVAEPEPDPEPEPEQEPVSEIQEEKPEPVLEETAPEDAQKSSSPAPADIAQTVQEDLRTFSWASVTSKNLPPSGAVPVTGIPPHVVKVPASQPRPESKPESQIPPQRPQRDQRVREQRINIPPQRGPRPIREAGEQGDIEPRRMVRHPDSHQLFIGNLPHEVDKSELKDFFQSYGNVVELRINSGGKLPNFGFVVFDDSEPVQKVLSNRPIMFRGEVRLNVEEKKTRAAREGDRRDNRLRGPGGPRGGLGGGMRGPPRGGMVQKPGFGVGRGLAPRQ
Technique: RNA Bind-n-Seq
Form: RNA
Matrix: in vitro
Concentration: 1 µM
Setting: whole 134-nt RNA, ends assumed
With: 150 mM KCl
Relative to: input library
Reading: higher = stronger binding
Endpoint: log2 enrichment
Constant ends, left off below: GGGAGUUCUACAGUCCGACGAUC … UGGAAUUCUCGGGUGUCAAGG
Sequence = CUGUGCUACACAUCGUAUGUACCGAAUCGGGGAAAAAAAGGGGAAAAAGGGGAAAAAGGGGAAAGUAUUAUGUUACGCCGUUCGGAUCUG; value = 0.122
Sequence = UCAAGUCCUGUGCUACACAUCGUAUGUACCGAAUCGGGAGGGAAAAAGGGAGGGAAAGUAUUAUGUUACGCCGUUCGGAUCUGCACUUCC; value = 2.05
Sequence = AAGUCCUGUGCUACACAUCGUAUGUACCGAAUCGGGGAAAGGGGAAAGGGGAGGGGAAAGUAUUAUGUUACGCCGUUCGGAUCUGCACUU; value = 3.26
Sequence = UGGAUUUUCAAGACACGAAUGCUCGGAGUCUGGCAGAAAGGAAGAGAGAAGAGGAGAAGCAGAAGCACUUGGAUAAAAUUUAUCAAGAAA; value = -1.85
Sequence = UGUGCUACACAUCGUAUGUACCGAAUCGGGGAAAAAGGGGUUUUUUUGGGGAAAAAAAGGGGAAAGUAUUAUGUUACGCCGUUCGGAUCU; value = 0.312
Sequence = ACCAUGCAGGUGGGCAUCUUUGGGAAGUGGGGCAAGGGGGGGAUAGGGAGGGGGGUAACACUUUGGGAACAAAUGGUCCCAGGUCGUUUC; value = -0.551
Sequence = UUGCUAAUCUAUAAAUUUUUUUUAUAUGAAAUAGCUCAUAGUCGGAAGCCGGCACCCUCAAAUGAGCCCGAAUAUCUAUGUAAAUGGAUG; value = -3.32
Sequence = UGGCCCUGGUGGCAUGCGGGGUGGAAGAGGUGGCCUCAUGGAUCGUGGUGGUCCCGGUGGAAUGUUCAGAGGUGGCCGUGGUGGAGACAG; value = 2.38

Series 2
Target: Interferon regulatory factor 7, full length, phosphomimetic (IRF7, Homo sapiens, UniProt Q92985, residues 1-503, S471D/S472D/S475D/S476D/S477D/S483D/S484D/S487D)
Technique: protein-binding microarray
Form: double-stranded DNA, one strand shown
Matrix: in vitro
Concentration: 2200 nM top
Setting: 60-bp whole probe
With: salmon DNA 0.4 mg/ml
Relative to: random background probes
Reading: higher = stronger binding
Endpoint: fitted relative affinity
Constant ends, left off below: GCCTAGCAC … GTGCTAGGTCTTGATTCGCTTGACGCTGCTG
Construct (chain): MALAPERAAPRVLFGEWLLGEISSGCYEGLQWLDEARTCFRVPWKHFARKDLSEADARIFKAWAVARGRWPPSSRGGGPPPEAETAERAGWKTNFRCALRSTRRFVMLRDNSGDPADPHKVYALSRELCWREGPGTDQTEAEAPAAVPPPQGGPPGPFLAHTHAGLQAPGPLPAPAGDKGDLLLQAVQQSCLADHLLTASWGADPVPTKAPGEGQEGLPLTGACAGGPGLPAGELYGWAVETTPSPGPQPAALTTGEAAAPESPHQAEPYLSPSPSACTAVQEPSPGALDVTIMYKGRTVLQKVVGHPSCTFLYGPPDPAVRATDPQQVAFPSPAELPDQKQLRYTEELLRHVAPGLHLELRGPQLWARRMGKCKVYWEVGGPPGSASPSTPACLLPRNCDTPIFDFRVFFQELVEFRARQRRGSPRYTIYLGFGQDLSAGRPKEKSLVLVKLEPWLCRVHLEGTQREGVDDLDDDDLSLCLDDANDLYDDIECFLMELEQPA
Sequence = TCATTTTTTTTTTTTTTACT; value = 1.96 z-score
Sequence = TCAGCTTGGTGTCTCTGACT; value = 0.461 z-score
Sequence = TTAGGTTTCGGTCTAGGTTA; value = 6.27 z-score
Sequence = GACGGTATCCTTCTCGTGAC; value = 0.877 z-score
Sequence = CACTCTCTGCTTGTATCTGG; value = 2.07 z-score
Sequence = TTTGGACTGGGACTGGGTTA; value = -0.335 z-score

Series 3
Target: PABPC1L2, full length, GST fusion (mouse, UniProt A0ABA7IW68)
Technique: RNAcompete
Form: RNA
Matrix: in vitro
Concentration: 20 nM
Setting: 7-mer, probes averaged, single round
Relative to: mean of 7-mers
Reading: higher = stronger binding
Endpoint: 7-mer Z-score
Construct (chain): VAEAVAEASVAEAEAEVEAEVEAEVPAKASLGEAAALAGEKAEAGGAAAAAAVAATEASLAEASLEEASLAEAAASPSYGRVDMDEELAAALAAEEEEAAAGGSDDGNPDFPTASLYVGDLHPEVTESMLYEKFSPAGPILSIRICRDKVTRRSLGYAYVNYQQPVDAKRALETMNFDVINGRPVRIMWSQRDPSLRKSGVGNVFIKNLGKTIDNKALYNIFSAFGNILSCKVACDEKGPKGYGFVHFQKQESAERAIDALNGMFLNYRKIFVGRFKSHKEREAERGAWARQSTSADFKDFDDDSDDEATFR
Sequence = CCGUUAA; value = -0.0536
Sequence = CAGUGUC; value = -0.0699
Sequence = ACGCGUU; value = -0.222
Sequence = UCCUUGA; value = -0.253
Sequence = CUACUCU; value = -0.345
Sequence = GGAGGUA; value = 0.0515
Sequence = GAAAAAC; value = 10.5
Sequence = AUAUAUG; value = 0.0642

Mixed results
Molecule = PhoQ, residues 284 288 289 292 302 303 ALVSVA; target = PhoP, residues 12 14 15 18 19 IQFRS (Escherichia coli, UniProt P23836); assay = Sort-seq, refers to: YFP reporter; system = E. coli; setting = PhoQ-PhoP variant library, with: 10 µM Mg2+; how to read = relative to: high Mg2+ state, higher = stronger signaling; endpoint = fold induction; value = 29.4

A few entries again (series 2):
Sequence = TTAGGTTTCGGTCTAGGTTA; value = 6.27 z-score
Sequence = TCATTTTTTTTTTTTTTACT; value = 1.96 z-score
